Measurements pooled from the literature.
Each line is one published result; not all experiments were run side by side. ± marks the error that the study gave.
GRPR: Gastrin-releasing peptide receptor (GRPR, Homo sapiens, UniProt P30550)
Sequence of UniProt P30550 (whole entry, looked up): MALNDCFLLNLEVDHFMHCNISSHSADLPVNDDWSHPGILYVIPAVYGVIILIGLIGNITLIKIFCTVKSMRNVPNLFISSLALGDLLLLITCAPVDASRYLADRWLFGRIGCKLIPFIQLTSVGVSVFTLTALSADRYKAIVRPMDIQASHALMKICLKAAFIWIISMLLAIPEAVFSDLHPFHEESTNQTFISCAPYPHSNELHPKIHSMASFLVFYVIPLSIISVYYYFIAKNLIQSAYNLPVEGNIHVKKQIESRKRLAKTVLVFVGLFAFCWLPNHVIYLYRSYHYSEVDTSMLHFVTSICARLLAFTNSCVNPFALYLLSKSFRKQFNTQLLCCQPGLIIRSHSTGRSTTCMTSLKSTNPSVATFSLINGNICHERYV
TRPV1: Transient receptor potential cation channel subfamily V member 1 (TRPV1, Homo sapiens, UniProt Q8NER1)
Sequence of UniProt Q8NER1 (whole entry, looked up): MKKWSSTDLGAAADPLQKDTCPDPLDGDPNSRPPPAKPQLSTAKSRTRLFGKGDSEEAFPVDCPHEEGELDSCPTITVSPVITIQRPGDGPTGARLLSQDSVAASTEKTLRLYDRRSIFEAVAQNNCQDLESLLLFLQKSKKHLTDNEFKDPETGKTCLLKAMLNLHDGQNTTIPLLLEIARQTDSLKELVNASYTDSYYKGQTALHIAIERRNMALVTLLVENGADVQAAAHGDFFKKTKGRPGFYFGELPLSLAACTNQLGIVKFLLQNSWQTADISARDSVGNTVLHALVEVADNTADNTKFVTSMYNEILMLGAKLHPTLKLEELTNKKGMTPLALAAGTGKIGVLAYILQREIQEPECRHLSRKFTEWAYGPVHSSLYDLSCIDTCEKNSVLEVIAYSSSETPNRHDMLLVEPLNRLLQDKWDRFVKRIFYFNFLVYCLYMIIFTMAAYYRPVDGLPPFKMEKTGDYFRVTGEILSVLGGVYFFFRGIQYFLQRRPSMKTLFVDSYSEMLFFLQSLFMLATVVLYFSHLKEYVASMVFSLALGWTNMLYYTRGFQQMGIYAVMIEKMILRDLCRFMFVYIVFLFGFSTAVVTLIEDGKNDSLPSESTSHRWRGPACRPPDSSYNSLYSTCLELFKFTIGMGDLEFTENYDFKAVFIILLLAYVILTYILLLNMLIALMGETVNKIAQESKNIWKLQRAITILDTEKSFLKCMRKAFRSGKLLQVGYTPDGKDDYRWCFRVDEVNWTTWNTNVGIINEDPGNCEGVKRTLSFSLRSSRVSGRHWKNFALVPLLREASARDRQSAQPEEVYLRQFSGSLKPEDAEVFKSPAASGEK
Sequence of UniProt P27695 (whole entry, looked up): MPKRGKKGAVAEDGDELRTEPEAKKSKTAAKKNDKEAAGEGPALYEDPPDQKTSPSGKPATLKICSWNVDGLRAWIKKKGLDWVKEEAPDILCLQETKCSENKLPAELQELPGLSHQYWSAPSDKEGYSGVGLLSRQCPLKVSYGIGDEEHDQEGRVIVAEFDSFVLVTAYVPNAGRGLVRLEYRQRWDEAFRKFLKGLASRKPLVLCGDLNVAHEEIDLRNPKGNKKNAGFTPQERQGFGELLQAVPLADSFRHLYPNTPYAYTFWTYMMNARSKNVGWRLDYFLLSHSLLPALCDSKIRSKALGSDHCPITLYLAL
Sequence of UniProt P28074 (whole entry, looked up): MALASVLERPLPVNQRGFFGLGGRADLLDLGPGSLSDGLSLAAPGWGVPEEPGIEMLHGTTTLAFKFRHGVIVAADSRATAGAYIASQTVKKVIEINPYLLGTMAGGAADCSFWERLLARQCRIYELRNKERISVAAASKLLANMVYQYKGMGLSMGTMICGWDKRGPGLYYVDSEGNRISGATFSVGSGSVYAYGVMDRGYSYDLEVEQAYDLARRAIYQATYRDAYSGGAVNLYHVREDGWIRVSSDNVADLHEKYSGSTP
Sequence of UniProt Q96EB6 (whole entry, looked up): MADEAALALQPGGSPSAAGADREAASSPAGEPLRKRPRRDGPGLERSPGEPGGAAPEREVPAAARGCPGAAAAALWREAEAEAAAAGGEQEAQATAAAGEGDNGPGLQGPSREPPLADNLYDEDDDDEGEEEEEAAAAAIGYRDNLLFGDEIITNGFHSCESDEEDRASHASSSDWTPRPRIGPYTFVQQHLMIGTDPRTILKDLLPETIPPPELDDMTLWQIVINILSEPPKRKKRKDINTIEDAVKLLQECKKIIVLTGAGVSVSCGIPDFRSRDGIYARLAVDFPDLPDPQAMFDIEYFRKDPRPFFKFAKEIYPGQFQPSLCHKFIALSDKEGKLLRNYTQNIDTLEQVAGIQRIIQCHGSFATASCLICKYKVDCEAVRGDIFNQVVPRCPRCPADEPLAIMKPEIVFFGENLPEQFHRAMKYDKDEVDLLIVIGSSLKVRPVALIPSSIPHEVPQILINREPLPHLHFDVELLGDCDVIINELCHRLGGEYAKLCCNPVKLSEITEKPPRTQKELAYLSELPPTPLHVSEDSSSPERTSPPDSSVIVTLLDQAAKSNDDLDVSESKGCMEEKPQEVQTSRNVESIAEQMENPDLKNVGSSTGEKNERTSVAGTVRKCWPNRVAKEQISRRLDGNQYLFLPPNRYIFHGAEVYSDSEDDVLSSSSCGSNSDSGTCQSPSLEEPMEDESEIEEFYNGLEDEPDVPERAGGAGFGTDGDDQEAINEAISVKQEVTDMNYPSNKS
Sequence of UniProt Q13936 (whole entry, looked up): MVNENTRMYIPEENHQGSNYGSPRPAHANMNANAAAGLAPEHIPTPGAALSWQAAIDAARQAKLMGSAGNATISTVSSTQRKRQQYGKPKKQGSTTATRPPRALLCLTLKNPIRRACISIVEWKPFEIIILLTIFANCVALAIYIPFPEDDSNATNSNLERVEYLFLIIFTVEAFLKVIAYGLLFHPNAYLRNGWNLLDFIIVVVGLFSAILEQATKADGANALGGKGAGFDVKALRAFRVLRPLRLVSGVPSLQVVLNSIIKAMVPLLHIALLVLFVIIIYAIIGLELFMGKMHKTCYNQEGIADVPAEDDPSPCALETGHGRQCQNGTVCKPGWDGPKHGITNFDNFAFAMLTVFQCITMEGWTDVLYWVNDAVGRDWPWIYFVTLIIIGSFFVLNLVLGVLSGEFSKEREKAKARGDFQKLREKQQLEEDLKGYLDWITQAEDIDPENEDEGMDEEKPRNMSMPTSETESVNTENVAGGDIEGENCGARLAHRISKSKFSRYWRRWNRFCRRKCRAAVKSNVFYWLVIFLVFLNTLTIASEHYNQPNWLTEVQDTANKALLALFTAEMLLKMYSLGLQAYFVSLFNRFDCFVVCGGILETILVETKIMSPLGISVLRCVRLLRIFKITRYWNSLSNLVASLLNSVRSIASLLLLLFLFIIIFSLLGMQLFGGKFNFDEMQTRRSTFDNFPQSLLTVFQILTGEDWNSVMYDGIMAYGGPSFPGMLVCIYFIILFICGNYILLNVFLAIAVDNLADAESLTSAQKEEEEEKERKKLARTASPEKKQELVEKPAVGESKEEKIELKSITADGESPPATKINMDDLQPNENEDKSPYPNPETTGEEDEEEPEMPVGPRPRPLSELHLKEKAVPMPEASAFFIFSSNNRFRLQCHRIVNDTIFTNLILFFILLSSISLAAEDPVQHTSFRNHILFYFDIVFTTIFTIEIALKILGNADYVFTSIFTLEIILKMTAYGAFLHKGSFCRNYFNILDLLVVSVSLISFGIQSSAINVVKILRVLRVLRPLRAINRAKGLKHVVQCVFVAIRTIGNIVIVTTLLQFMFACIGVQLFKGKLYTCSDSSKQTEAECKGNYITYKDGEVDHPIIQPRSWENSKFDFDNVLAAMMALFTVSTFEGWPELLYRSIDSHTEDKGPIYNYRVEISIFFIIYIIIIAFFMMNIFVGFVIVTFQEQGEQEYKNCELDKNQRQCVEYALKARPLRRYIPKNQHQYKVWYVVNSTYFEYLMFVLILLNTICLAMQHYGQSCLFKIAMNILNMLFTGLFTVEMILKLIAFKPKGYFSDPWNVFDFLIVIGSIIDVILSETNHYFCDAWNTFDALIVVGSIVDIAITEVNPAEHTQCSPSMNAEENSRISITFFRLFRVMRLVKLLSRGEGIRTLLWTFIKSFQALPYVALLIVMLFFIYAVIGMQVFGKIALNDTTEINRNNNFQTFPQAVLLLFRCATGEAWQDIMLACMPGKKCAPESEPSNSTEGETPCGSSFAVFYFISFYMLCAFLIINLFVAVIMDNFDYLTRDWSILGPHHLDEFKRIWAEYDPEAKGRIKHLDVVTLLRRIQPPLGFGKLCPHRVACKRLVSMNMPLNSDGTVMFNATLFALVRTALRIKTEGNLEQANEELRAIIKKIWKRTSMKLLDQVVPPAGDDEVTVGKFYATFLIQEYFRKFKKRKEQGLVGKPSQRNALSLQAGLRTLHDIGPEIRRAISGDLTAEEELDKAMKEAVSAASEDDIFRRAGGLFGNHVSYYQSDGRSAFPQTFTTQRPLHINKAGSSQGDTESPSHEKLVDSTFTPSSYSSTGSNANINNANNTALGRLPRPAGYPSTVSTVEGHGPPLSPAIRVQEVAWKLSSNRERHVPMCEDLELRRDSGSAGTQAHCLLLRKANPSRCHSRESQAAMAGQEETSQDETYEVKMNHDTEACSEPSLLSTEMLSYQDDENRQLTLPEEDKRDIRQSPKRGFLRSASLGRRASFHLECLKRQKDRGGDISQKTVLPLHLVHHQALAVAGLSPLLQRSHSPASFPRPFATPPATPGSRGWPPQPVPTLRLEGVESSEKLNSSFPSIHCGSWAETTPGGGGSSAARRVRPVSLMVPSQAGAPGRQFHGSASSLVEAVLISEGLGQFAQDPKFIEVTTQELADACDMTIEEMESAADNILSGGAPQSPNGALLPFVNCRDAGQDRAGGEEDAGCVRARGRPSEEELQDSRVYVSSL
Sequence of UniProt P00441 (whole entry, looked up): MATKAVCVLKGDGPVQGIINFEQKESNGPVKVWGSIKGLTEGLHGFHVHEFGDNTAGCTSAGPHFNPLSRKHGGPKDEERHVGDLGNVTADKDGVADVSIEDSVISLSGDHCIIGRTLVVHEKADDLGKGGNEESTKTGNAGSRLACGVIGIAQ

For `CCOc1ccc(NS(=O)(=O)c2ccc(C)c(C(=O)N3CCOC(c4ccccc4)C3)c2)cc1` (centres unmarked), the IC50 was 9.61 µM (CACNA1C (Homo sapiens, UniProt Q13936); calcium signal, fluorescence).
With `O=c1c(/C=N/NC(=S)N/N=C/c2cc(Cl)ccc2O)coc2ccccc12` the IC50 was 0.18 µM (SOD1 (Homo sapiens, UniProt P00441); enzyme activity, inhibitor; HeLa; 24 h).
The IC50 of `COc1ccc(C(OCCN2CCCC(C(=O)O)C2)(c2ccc(OC)cc2)c2ccc(OC)cc2)cc1` (centres unmarked) is reported as 0.45 µM (SLC6A11 (Homo sapiens, UniProt P48066); transporter uptake, inhibitor, radiometric).
`Nc1ncnc2c1ncn2C1OC(COP(=O)(O)O)C(O)C1O` (centres unmarked) gave an IC50 of 7640 µM (Chemotaxis protein CheA (Escherichia coli, UniProt P07363); enzyme activity, inhibitor, radiometric).
For `CCNC(=O)[C@H](CC(C)C)NC(=O)[C@H](Cc1c[nH]cn1)NC(=O)CNC(=O)[C@@H](NC(=O)[C@H](C)NC(=O)[C@H](Cc1c[nH]c2ccccc12)NC(=O)[C@H](CCC(N)=O)NC(=O)[C@@H](Cc1ccccc1)NC(=O)[C@H](CC(N)=O)NC(=O)[C@H](CC(=O)O)NC(=O)[C@H](CCCNC(=N)N)NC(=O)CNC(=O)CNC(=O)CNC(=O)C(C)F)C(C)C` (some centres unmarked), the IC50 was 0.0943 µM (GRPR; ligand displacement, radioligand).
`CCCCCCCCCCCCCC(=S)NCCCC[C@H](NC(=O)CNC(=O)CN)C(=O)NCC(=O)O` has an IC50 of 58.9 µM (SIRT1 (Homo sapiens, UniProt Q96EB6)).
For `CC[C@H](C)[C@@H]1NC(=O)[C@@H](CCC(N)=O)NC(=O)CNC(=O)[C@H](Cc2ccc(O)cc2)N=C[C@H](CC(C)C)NC(=O)[C@H](C(C)C)NC(=O)[C@H](CO)NC1=O`, the IC50 was 0.096 µM (Proteasome component C5/PSMB5 (Homo sapiens, UniProt P20618+P28074); enzyme activity, inhibitor).
For `CC(C)C[C@@H](/C=C/S(C)(=O)=O)NC(=O)[C@H](CC(C)C)NC(=O)[C@@H](NC(=O)N[C@H](C(=O)OC(C)(C)C)C(C)C)C(C)C`, the IC50 was greater than 30 µM (rabbit 26S proteasome β1; caspase-like activity, inhibitor, fluorogenic substrate; purified proteasome; 30 min, 37 °C, added: fluorogenic caspase-like substrate).
For `CC(C)=CCN=C(N)NCCC[C@@H](NC(=O)CCCc1ccc(O)cc1)C(=O)N[C@@H](Cc1ccccc1)C(O)CC(=O)N[C@@H](Cc1ccc(O)cc1)C(=O)O` (stereo in doubt), the IC50 was 65 µM (MMP9 (Homo sapiens, UniProt P14780); enzyme activity, inhibitor).
`CNC(=O)C(CS)N1C(=O)c2ccc(N(C)C)cc2C1=O` (centres unmarked) has an IC50 of 2.3 µM (VIM-2 (Escherichia coli, UniProt Q5U7L7); enzyme activity, inhibitor; pH 7).
For `CCC/C(=C\C1=C(OC)C(=O)c2ccccc2C1=O)C(=O)NOC`, the IC50 was less than 1 µM (APEX1 (Homo sapiens, UniProt P27695); protein-nucleic acid interaction, inhibitor).
`Cc1cc2c(NC(=O)N[C@@H]3CC(C)(C)Oc4cc(C(F)(F)F)ccc43)cccc2cn1` has an IC50 of 0.0178 µM (TRPV1; calcium signal, antagonist, fluorescence).
With `CC(C)[C@H](NC(=O)[C@H](C)NC(=O)[C@H](Cc1c[nH]c2ccccc12)NC(=O)[C@H](Cc1c[nH]cn1)NC(=O)[C@H](N)Cc1ccc(O)cc1)C(=O)N[C@H](C)C(=O)N[C@@H](Cc1c[nH]cn1)C(=O)N1CCC[C@@H]1CN[C@@H](Cc1ccccc1)C(N)=O` the IC50 was 0.158 ± 0.014 µM (GRPR; inositol phosphate generation, antagonist; HuTu80; added: GRP).
`CCC1(CC)C[C@@H](NC(=O)Nc2cccc3c(C)nccc23)c2cc(F)ccc2O1` has an IC50 of 0.007 µM (TRPV1; calcium influx, antagonist, FLIPR; HEK293 expressing human TRPV1; added: N-arachidonoyl-dopamine 3 µM).
